Assay results pooled from the literature.
Each line is one published result; not all experiments were run side by side. Several values in a cell are separate wells, animals, samples, runs or records. Numbers after ± are the reported error.

Compound | target or system | test | system | setting | how to read | endpoint | value
COC1OC(C)C(OC2OC(C)C(OS(=O)(=O)O)C(OC3OC(C)C(OC4OC(C)C(OS(=O)(=O)O)C(OC5OC(C)C(OS(=O)(=O)O)C(OS(=O)(=O)O)C5OS(=O)(=O)O)C4OS(=O)(=O)O)C(OS(=O)(=O)O)C3OS(=O)(=O)O)C2OS(=O)(=O)O)C(OS(=O)(=O)O)C1OS(=O)(=O)O (centres unmarked) | – | – | human plasma | 16 µg/mL | – | activated partial thromboplastin time | 47.5 s and 47.4 s and 47.2 s
N#Cc1cccc(-c2ccc([C@H]3[C@@H](F)[C@@H](F)C[C@@H](F)[C@H]3F)cc2)c1 | – | liver microsome stability | dog liver microsomes | 1 µM | – | hepatic clearance | 23 mL/min/kg
COCC1CN(C2CCN(c3cc(OC)c(Nc4ncc(Br)c(Nc5ccc6c(c5P(C)(C)=O)OCCO6)n4)cc3C)CC2)C1 | – | RECIST 1.1 | advanced EGFR-mutant NSCLC patients | 60 mg once daily | – | disease control rate | 0%
Nc1nc2cc(CC[C@H]3C[C@@H](n4ccc5c(N)ncnc54)[C@H](O)[C@@H]3O)ccc2cc1Br | – | – | A-427 xenograft, mouse | 10.0 mg/kg/day, day 34 | – | %ΔTGI | 115%
COC1OC(C)C(OS(=O)(=O)O)C(OC2OC(C)C(OS(=O)(=O)O)C(OC3OC(C)C(OS(=O)(=O)O)C(OC4OC(C)C(OS(=O)(=O)O)C(OC5OC(C)C(OS(=O)(=O)O)C(OC6OC(C)C(OS(=O)(=O)O)C(OC7OC(C)C(OS(=O)(=O)O)C(OC8OC(C)C(OS(=O)(=O)O)C(OS(=O)(=O)O)C8OS(=O)(=O)O)C7OS(=O)(=O)O)C6OS(=O)(=O)O)C5OS(=O)(=O)O)C4OS(=O)(=O)O)C3OS(=O)(=O)O)C2OS(=O)(=O)O)C1OS(=O)(=O)O (centres unmarked) | – | – | human plasma | 8 µg/mL | – | activated partial thromboplastin time | 52.5 s and 51.4 s and 52.7 s
COc1cccc(O)c1C(=O)/C=C/c1ccc2cc(N3CCCC3)ccc2c1 | – | immunohistochemistry | C57BL/6J mice, cisplatin-induced kidney injury, kidney | dose not given, together with: cisplatin | – | γH2AX level | decreased
CC(=O)Nc1ccc([C@H]2[C@@H](F)[C@@H](F)C[C@@H](F)[C@H]2F)cc1 | – | hepatocyte stability | cryopreserved human hepatocytes | 1 µM | – | hepatic clearance | 11 mL/min/kg
C[n+]1ccc(/C=N/NC(=O)c2ccc3ccc4ccc(C(=O)N/N=C/c5cc[n+](C)c6ccccc56)nc4c3n2)c2ccccc21 | 22CTA telomeric G4-DNA antiparallel | FRET melting | – | 1 µM, K10 buffer, DNA 0.2 µM | – | ΔTm | 19.3 ± 0.5 °C
CN1CCC[C@]1(C)/C=C/S(=O)(=O)NC(=O)Nc1c2c(cc3c1CCC3)CCC2 | – | – | human, whole blood ex vivo | 50 mg single dose, 6 h, single ascending dose, together with: LPS and ATP | – | IL-18 inhibition | 119%
COC(=O)C1CN1S(=O)(=O)c1ccc2cc(C)ccc2c1 (centres unmarked) | – | – | mouse, Lewis lung carcinoma | ip, 100 mg/kg, 312 h | – | tumour volume | 623 mm3
COC1OC(C)C(OS(=O)(=O)O)C(OC2OC(C)C(OS(=O)(=O)O)C(OC3OC(C)C(OS(=O)(=O)O)C(OC4OC(C)C(OS(=O)(=O)O)C(OS(=O)(=O)O)C4OS(=O)(=O)O)C3OS(=O)(=O)O)C2OS(=O)(=O)O)C1OS(=O)(=O)O (centres unmarked) | – | – | human plasma | 32 µg/mL | – | activated partial thromboplastin time | 50.1 s and 50.7 s and 50.2 s
COc1ccc(NC(=O)c2ccc3[nH]c(-c4ccc(N(C)C)cc4)nc3c2)cn1 | – | – | CT26, BALB/c mice, subcutaneous syngeneic graft | dose not given, day 4 | – | tumour volume | 121 mm3 and 95.2 mm3 and 43.5 mm3 and 66 mm3 and 56.8 mm3
CCCCCCCCCCCCCCCC(=O)NCCCC[C@H](NC(=O)[C@H](CCC(=O)O)NC(=O)[C@H](Cc1ccc(O)cc1)NC(=O)[C@H](CCC(=O)O)NC(=O)COCC(=O)NCCCOCCOCCOCCCNC(=O)[C@H](Cc1ccccc1)NC(=O)[C@H](CC(N)=O)NC(=O)[C@H](Cc1c[nH]cn1)NC(=O)[C@@H](NC(=O)[C@H](CC(=O)O)NC(=O)[C@H](CCC(N)=O)NC(=O)[C@H](CC(C)C)NC(=O)[C@H](CCCCN)NC(=O)[C@H](CCCCN)NC(=O)[C@H](CCCNC(=N)N)NC(=O)[C@H](CC(C)C)NC(=O)[C@H](Cc1c[nH]c2ccccc12)NC(=O)[C@H](CCC(=O)O)NC(=O)[C@@H](NC(=O)[C@H](CCCNC(=N)N)NC(=O)[C@H](CCC(=O)O)NC(=O)[C@H](CCSC)NC(=O)[C@H](CO)NC(=O)[C@H](CC(N)=O)NC(=O)[C@H](CC(C)C)NC(=O)[C@H](Cc1c[nH]cn1)NC(=O)[C@H](CCCCN)NC(=O)CNC(=O)[C@H](CC(C)C)NC(=O)[C@H](CC(N)=O)NC(=O)[C@H](Cc1c[nH]cn1)NC(=O)[C@H](CCSC)NC(=O)[C@H](CC(C)C)NC(=O)[C@H](CCC(N)=O)NC(=O)[C@@H](NC(=O)[C@H](CCC(=O)O)NC(=O)[C@H](CO)NC(=O)[C@@H](NC(=O)[C@@H](N)CO)C(C)C)[C@@H](C)CC)C(C)C)C(C)C)C(=O)N[C@@H](CCC(=O)O)C(=O)N[C@@H](Cc1ccc(O)cc1)C(=O)N[C@@H](CCC(=O)O)C(N)=O | – | micro-CT | humanized PTH1R mouse, femur | dose not given | – | bone volume/total volume | 40.9% and 82.9% and 54.2%
COc1cc2c(NC3CCN(C(C)C)CC3)cc(N3CCOCC3)nc2cc1OCCCN1CCCC1 | – | TMT proteomics, item: LDHB | 5xFAD mice, hippocampus | dose not given, unit not given | reference: untreated 5xFAD | protein level difference | 0.144
NC[C@@H](C(=O)Nc1ccc(-c2cn[nH]c2)cc1)c1ccccc1 | – | tonometry | NZW rabbit, magnetic bead-induced ocular hypertension | ocular, 0.1%, 4 h | – | IOP | 30.5 mmHg
CC(=O)[O-].O.O.O.O.[Ni+2].[O-]c1ccc(Br)cc1C=NCCN1CCOCC1 | – | hydroxyl radical scavenging | – | 200 µM | – | inhibition | 46.8%
C=CC(=O)N1[C@@H](c2ccc3c(c2)OCO3)c2[nH]c3ccccc3c2C[C@H]1C(=O)N1CCN(C)CC1 | CCNE1 WT-3xFLAG:CDK2 complex | co-IP TMT proteomics, item: NUP35 | HEK-293T | 20 µM, 6 h | reference: DMSO | log2 fold change | -0.12
COC1OC(C)C(OC2OC(C)C(O)C(OC3OC(C)C(OC4OC(C)C(O)C(OC5OC(C)C(OC6OC(C)C(O)C(OC7OC(C)C(OC8OC(C)C(O)C(OC9OC(C)C(OC%10OC(C)C(O)C(OC%11OC(C)C(O)C(OS(=O)(=O)O)C%11OS(=O)(=O)O)C%10OS(=O)(=O)O)C(OS(=O)(=O)O)C9OS(=O)(=O)O)C8OS(=O)(=O)O)C(OS(=O)(=O)O)C7OS(=O)(=O)O)C6OS(=O)(=O)O)C(OS(=O)(=O)O)C5OS(=O)(=O)O)C4OS(=O)(=O)O)C(OS(=O)(=O)O)C3OS(=O)(=O)O)C2OS(=O)(=O)O)C(OS(=O)(=O)O)C1OS(=O)(=O)O (centres unmarked) | – | – | human plasma | 16 µg/mL | – | activated partial thromboplastin time | 52.4 s and 53.6 s and 53.5 s
COc1ccc(C(=O)CCc2cc(C(CCc3ccc(O)cc3OC)c3ccc(O)cc3)c(O)cc2OC)cc1 (racemic) | – | – | human blood | 1 µM, together with: A23187 | – | TXB2 level | 984 ± 397 pg/mL
C=CC(=O)N1CC2C(=O)N(CCN(C)C)c3c(c4cc(Cl)c(-c5c(O)cccc5F)nc4n(-c4c(C)ccnc4C(C)C)c3=O)N2CC1C (centres unmarked) | – | immunohistochemistry | BALB/c nude mouse, H358-Luc intracranial tumour, brain tissue | 100 mg/kg, 21 days | – | p-ERK level | decreased
COC1OC(C)C(OC2OC(C)C(O)C(OC3OC(C)C(OC4OC(C)C(O)C(OC5OC(C)C(OC6OC(C)C(O)C(OC7OC(C)C(OC8OC(C)C(O)C(OC9OC(C)C(OC%10OC(C)C(O)C(OS(=O)(=O)O)C%10OS(=O)(=O)O)C(OS(=O)(=O)O)C9OS(=O)(=O)O)C8OS(=O)(=O)O)C(OS(=O)(=O)O)C7OS(=O)(=O)O)C6OS(=O)(=O)O)C(OS(=O)(=O)O)C5OS(=O)(=O)O)C4OS(=O)(=O)O)C(OS(=O)(=O)O)C3OS(=O)(=O)O)C2OS(=O)(=O)O)C(OS(=O)(=O)O)C1OS(=O)(=O)O (centres unmarked) | – | – | human plasma | 16 µg/mL | – | activated partial thromboplastin time | 49.2 s and 50.7 s and 50.9 s
COc1cc(O)ccc1CCC(c1ccc(O)cc1)c1cc2c(c(C)c1O)OC(c1ccc(O)cc1)CC2 (mixture of isomers) | – | item: 12-HEPE | human whole blood | 10 µM, together with: A23187 | – | amount | 168 ± 48 pg/mL blood
CC(C)(C)NCC(SS(=O)(=O)O)c1ccccc1 (centres unmarked) | – | – | Swiss Webster mice, Schistosoma mansoni-infected | 100 mg/kg x 4 doses from day 42 post-infection, perfusion day 56 post-infection | reference: vehicle | spleen weight decrease | 42%
COC1OC(C)C(OS(=O)(=O)O)C(OC2OC(C)C(OS(=O)(=O)O)C(OC3OC(C)C(OS(=O)(=O)O)C(OC4OC(C)C(OS(=O)(=O)O)C(OC5OC(C)C(OS(=O)(=O)O)C(OC6OC(C)C(OS(=O)(=O)O)C(OC7OC(C)C(OS(=O)(=O)O)C(OC8OC(C)C(OS(=O)(=O)O)C(OC9OC(C)C(OS(=O)(=O)O)C(OC%10OC(C)C(OS(=O)(=O)O)C(OS(=O)(=O)O)C%10OS(=O)(=O)O)C9OS(=O)(=O)O)C8OS(=O)(=O)O)C7OS(=O)(=O)O)C6OS(=O)(=O)O)C5OS(=O)(=O)O)C4OS(=O)(=O)O)C3OS(=O)(=O)O)C2OS(=O)(=O)O)C1OS(=O)(=O)O (centres unmarked) | – | – | human plasma | 64 µg/mL | – | activated partial thromboplastin time | 208 s and 221 s and 216 s
C[n+]1cccc2cc(/C=N/NC(=O)c3cc(C(=O)N/N=C/c4ccc5c(ccc[n+]5C)c4)ncn3)ccc21 | 22CTA telomeric G4-DNA antiparallel | FRET melting | – | 1 µM, K10 buffer, DNA 0.2 µM | – | ΔTm | 3.9 ± 0.9 °C
COC1OC(C)C(OS(=O)(=O)O)C(OC2OC(C)C(OS(=O)(=O)O)C(OC3OC(C)C(OS(=O)(=O)O)C(OC4OC(C)C(OS(=O)(=O)O)C(OC5OC(C)C(OS(=O)(=O)O)C(OS(=O)(=O)O)C5OS(=O)(=O)O)C4OS(=O)(=O)O)C3OS(=O)(=O)O)C2OS(=O)(=O)O)C1OS(=O)(=O)O (centres unmarked) | – | – | human plasma | 8 µg/mL | – | activated partial thromboplastin time | 39.7 s and 39.3 s and 40 s
O=S(=O)(NCc1ccncc1)c1ccc(C2CCCCC2)cc1 | – | immunohistochemistry | CK-p25 mice male, hippocampal granule layer | ip, 0.3 mg/kg daily, 2 wk | reference: vehicle | increase of intact GFP+ neurons | ~29%
COC1OC(C)C(O)C(OC2OC(C)C(O)C(OC3OC(C)C(O)C(OC4OC(C)C(O)C(OC5OC(C)C(O)C(OC6OC(C)C(O)C(OC7OC(C)C(O)C(OC8OC(C)C(O)C(OS(=O)(=O)O)C8OS(=O)(=O)O)C7OS(=O)(=O)O)C6OS(=O)(=O)O)C5OS(=O)(=O)O)C4OS(=O)(=O)O)C3OS(=O)(=O)O)C2OS(=O)(=O)O)C1OS(=O)(=O)O (centres unmarked) | – | – | human plasma | 128 µg/mL | – | activated partial thromboplastin time | 40 ± 0.6 s
COC1CN([C@H]2CC[C@H]([C@@]3(C)Oc4c(Cl)cc(C(=O)NCc5c(SC)cc(C)[nH]c5=O)c(C)c4O3)CC2)C1 | – | RNA-seq, item: DAAM2 mouse homolog | mouse, HT-1376 xenograft, whole blood | dose not given | reference: vehicle | log2 fold change | 0.144

Repeated from above:
Compound | target or system | test | system | setting | how to read | endpoint | value
COc1cc2c(NC3CCN(C(C)C)CC3)cc(N3CCOCC3)nc2cc1OCCCN1CCCC1 | – | TMT proteomics, item: LDHB | 5xFAD mice, hippocampus | dose not given, unit not given | reference: untreated 5xFAD | protein level difference | 0.144
O=S(=O)(NCc1ccncc1)c1ccc(C2CCCCC2)cc1 | – | immunohistochemistry | CK-p25 mice male, hippocampal granule layer | ip, 0.3 mg/kg daily, 2 wk | reference: vehicle | increase of intact GFP+ neurons | ~29%
C=CC(=O)N1[C@@H](c2ccc3c(c2)OCO3)c2[nH]c3ccccc3c2C[C@H]1C(=O)N1CCN(C)CC1 | CCNE1 WT-3xFLAG:CDK2 complex | co-IP TMT proteomics, item: NUP35 | HEK-293T | 20 µM, 6 h | reference: DMSO | log2 fold change | -0.12
